# Experimental data from different studies.
# Each numbered part is a random draw from the data of one study; scales do not carry over between parts.

# Sample 1
# Target: Fragile X messenger ribonucleoprotein 1, C-terminal low-complexity region (Fmr1, Mus musculus, UniProt P35922)
# Technique: RNA Bind-n-Seq
# Form: RNA
# Sample: in vitro
# Concentration: 200 nM
# Setting: whole 134-nt RNA, ends assumed
# Together with: 150 mM LiCl
# Reference: input library
# Reading: higher = stronger binding
# Library: 7-deaza-guanosine replaces G
# Shared flanks, not repeated: GGGAGUUCUACAGUCCGACGAUC … UGGAAUUCUCGGGUGUCAAGG
Strand,log2 enrichment
AGUCCUGUGCUACACAUCGUAUGUACCGAAUCAAACCCAAAUUUUUAAAUUUUUAAAAAAGUAUUAUGUUACGCCGUUCGGAUCUGCACU,-1.47
CAAGCCAAGGAAAUGGUGUUAGAGUUAAUUCGUGAUCAAGGCGGUUUCAGAGAAGUUCGGAAUGAGUAUGGGUCAAGAAUAGGAGGAAAU,-1.88
UCCUGUGCUACACAUCGUAUGUACCGAAUCGGGGUGGGGUUUUUUUGGGGUUUUUGGGGAAAGUAUUAUGUUACGCCGUUCGGAUCUGCA,-0.403
UCCUCAAGUCCUGUGCUACACAUCGUAUGUACCGAAUCGGGUGGGGUGGUGGAAAGUAUUAUGUUACGCCGUUCGGAUCUGCACUUCCAG,-0.508
UCCUGUGCUACACAUCGUAUGUACCGAAUCGGCCCCCCGGCCCCCCGGGGCCCCCCGGGAAAGUAUUAUGUUACGCCGUUCGGAUCUGCA,0.867
AAGUCCUGUGCUACACAUCGUAUGUACCGAAUCGGAAAAGGAAAAGGGGAAAAGGGAAAGUAUUAUGUUACGCCGUUCGGAUCUGCACUU,-0.51
UCAAGUCCUGUGCUACACAUCGUAUGUACCGAAUCGGAAAAAAAGGAAAGGUGGAAAGUAUUAUGUUACGCCGUUCGGAUCUGCACUUCC,-1.44
UAGAUAUCCAUAGAAAAGAGAACUCUGGAGCUGCAGAGAAGCCUGUCACCAUCCAUGCCACCCCAGAGGGGACUUCUGAAGCAUGCCGCA,-0.216
UGCUGUUCAGGUGGUGGAGAAGAAGAUGGAACCCCAGGCUGCCUGGCUACAGAGCCUGGAGGGAUGCAUGUGGACAGCCAAGAAGAAGCU,-2.61
GUCCUGUGCUACACAUCGUAUGUACCGAAUCGGGUUUUUGGUUUUUGGGGUUUUUGGGGAAAGUAUUAUGUUACGCCGUUCGGAUCUGCA,-0.929
GUGCUACACAUCGUAUGUACCGAAUCGGGGAAAAAAAGGGGAAAAAAAGGGGAAAAAAAGGGGAAAGUAUUAUGUUACGCCGUUCGGAUC,0.797

# Sample 2
# Target: TAR DNA-binding protein 43, full length, His tag (TARDBP, Homo sapiens, UniProt Q13148, residues 1-414)
# Technique: RNA Bind-n-Seq
# Form: RNA
# Sample: in vitro
# Concentration: 20 nM
# Setting: 6-mer, flanks averaged, single round
# Together with: 150 mM KCl
# Reference: input library
# Reading: higher = stronger binding
Strand,6-mer enrichment (R)
AGACGG,1.65
UGCCUC,0.627
CAACUA,0.61
GAGCUA,0.824
UGCGAA,0.876
UAAUGC,0.651
AUUUAA,0.604
CUGAGG,1.59
AAACAU,0.6
GCAGGG,4.52
UAAGAA,0.912
GUCCAU,0.652
UAGCGA,0.815
ACCUCU,0.579
UACCUA,0.58
AUCCCC,0.639

# Sample 3
# Target: RNA binding protein fox-1 homolog 2, RRM domain, GST-SBP tag (RBFOX2, Homo sapiens, UniProt O43251-10, residues 100-194)
# Technique: RNA Bind-n-Seq
# Form: RNA
# Sample: in vitro
# Concentration: 365 nM
# Setting: natural RNA segment, single round, ends assumed
# Reference: no-protein control
# Reading: higher = stronger binding
# Shared flanks, not repeated: GGGAGUUCUACAGUCCGACGAUC … UGGAAUUCUCGGGUGCCAA
# Construct (chain): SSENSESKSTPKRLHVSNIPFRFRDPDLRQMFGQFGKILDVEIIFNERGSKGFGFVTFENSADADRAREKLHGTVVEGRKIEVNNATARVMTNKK
Strand,RBNS enrichment (R)
AGGACAGCCUGUGGCGGUGCCUGGGUGGGGCUGCUCCUCCAGGGCCACGUGCCAGGCCCGGGGCUGGCGGCUACUCAGCAGCCCUCCUCACCCCGUCUGGGGUUCAGCCC,0.368
AUAUUAAGGUGUGGCUUUAGGAGCAGUGGGAGGGUACCAGCAGAAAGGUUAGUAUCAUCAGAUAGCAUCUUAUACGAGUAAUAUGCCUGCUAUUUGAAGUGUAAUUGAGA,0.646
AUUUUUACUUCAUACUUCCAUUCACAAAUUGUAGCUAUCCAUUAUUAAUUGCUAGUACUUGUUUUUUAAACAACACUUUGUAGCAUGGGAACAACCCUCCCCCUUUCCAU,0.666
UCUAAAUUCAGUAGCAGUUUCAUCGACAGUGCCAUUGAACUAUGGGAACAUUUAUGAUUUUCUUUCAACAUUAAAACUGAAGUUAGUUUUGCCAUUUUUGAAAGUAUUAG,0.333
ACACAAACCUCACCCCUGUCACAUCAGUGACUCUGACCACUUUUGUUCUCAAACUCUCUCACUAUUAUCUGUGGUUGCCGUUUCUUCCCAAGGCCAGCCUGGACGAAUUU,0.497
AUGGAUCUGAAGUUCUCAGCCCUCACCCCACACUGCUGGAAUCUUCUGUAGAGCUGCCUGCCAAGCCACCUGAAACACAGUGGCUCCCUGUGACACUCAGGCCUCAGAUG,0.533
UUUGAAAUGAUCACAACACACUGUGCAGAAGUGGACAGAUGUUCCAUGGCGUUUGGUUCUCCUUCCUUCUCUCUCCUGCUCACUUCUCUGCCGCGCAACACAUCUCUCUG,0.383
CCCCAACCCAGGCCCCUGGCGUGUGUGGGUGUGCGUGCGUGUGCGUGCCGUGUUCGUGUGCAAGGGGCCGGGGAGGUGGGCGUGUGUGUGCGUGCCAGCGAAGGCUGCUG,0.372
CUGUGGCUUGUUAGCAUCAGAACCUCUCUGAAGACCAAACUUCCCUGUGUGGCCAGCAGAGGAAGCCUUGAGGAUAGAUCUCGGGUGACGUGGGAUUUUCUAAGCCUGAG,0.577
AUAACCUGGGUGGGCUUUUGGAAAAUCUUUGAGAAGUUGAUUUCAUAGGCUGUAGAACAGUAAAGUGGGAACUGGGCGGACUUUUCUAACAGUCGUACUUUUAUAAAGCG,0.615
AUGACUCUGUAUUUGACCUGUCUAUCUUCUCCAAGGGCAAAAAUCCUCUAAAUGCCACUCACAUCUUUCAGUCUCACAAUGCACAUCACGGAUAGCUUACUAAUCUUGGA,0.765
GAAAUUUCAGGCUGCUGCAAACAGCCAUACCUGGCAAGAGAAGUCUUCUAAUCUGGAAACCUGUGAAGCCUCAGCCCUUGAGAGGGCCCGAGAUGGAUCAGGGAGUUCUA,0.267

# Sample 4
# Target: Interferon regulatory factor 5, full length, phosphomimetic (IRF5, Homo sapiens, UniProt Q13568-2, residues 1-514, K96S/S451D/S453D/S456D/S462D)
# Technique: protein-binding microarray
# Form: double-stranded DNA, one strand shown
# Sample: in vitro
# Concentration: 250 nM
# Setting: 60-bp whole probe
# Together with: salmon DNA 0.4 mg/ml
# Reference: random background probes
# Reading: higher = stronger binding
# Shared flanks, not repeated: GCCTAGCAC … GTCTTGATTCGCTTGACGCTGCTG
Strand,log fluorescence
TCATCATTGCCTATTTTTCCGTGCTAG,0.709 z-score
GAGTGCTGGGATTACAGGCAGTGCTAG,-0.878 z-score
TTAGAACTGGGGTTTCGATTTGTGCTA,4.85 z-score
TCAGGTATCGACTTTCGGTTAGTGCTA,10.4 z-score
TTAGGTATCGGGTATCGGTAAGTGCTA,6.42 z-score
TCCTCTCTCTATTCAGAGGAGTGCTAG,0.504 z-score
GACGGTTTAGACACTGGGGACGTGCTA,-0.0412 z-score
GACTGTTTCGGGTTTCGGGACGTGCTA,8.45 z-score
GACGATTTCGGGTTTCGATACGTGCTA,7.66 z-score
GACGAACTGCGGTTTCGAGACGTGCTA,1.68 z-score
GACGGTTCCCTTTTCGTGACGTGCTAG,0.647 z-score
TTAGGTTTTGGTTTCGGTTAGTGCTAG,10.6 z-score
TCAAGGATGGTTTTCAGACTGTGCTAG,0.0499 z-score
ATTGTCTTCCCCATCTTGTTGTGCTAG,0.2 z-score
TCATGTATATATGTGTAACTGTGCTAG,0.346 z-score
ATGTTTTTCATTGTTTTTCAGTGCTAG,2.21 z-score
GACGATATCGGGTATCGACACGTGCTA,2.95 z-score
CTGTCATCATCGTTCCCAGCGTGCTAG,-0.052 z-score
TTAGGTCTCGGACTGCGTTAGTGCTAG,-0.233 z-score
GACGGTATCCTACTGATGACGTGCTAG,-0.205 z-score
TGTTGGTAATTTTGCTATTTGTGCTAG,0.56 z-score
TTAGGTCTCGGTTTCGGTAAGTGCTAG,7.38 z-score

# Repeated from above (sample 4):
Strand,log fluorescence
GACTGTTTCGGGTTTCGGGACGTGCTA,8.45 z-score
GACGGTTTAGACACTGGGGACGTGCTA,-0.0412 z-score
TCCTCTCTCTATTCAGAGGAGTGCTAG,0.504 z-score
TTAGGTCTCGGACTGCGTTAGTGCTAG,-0.233 z-score
GACGGTTCCCTTTTCGTGACGTGCTAG,0.647 z-score
